Results pooled from the literature.
A part holds a random share of what one study measured.
UniProt Q5S007, sequence (whole entry, looked up): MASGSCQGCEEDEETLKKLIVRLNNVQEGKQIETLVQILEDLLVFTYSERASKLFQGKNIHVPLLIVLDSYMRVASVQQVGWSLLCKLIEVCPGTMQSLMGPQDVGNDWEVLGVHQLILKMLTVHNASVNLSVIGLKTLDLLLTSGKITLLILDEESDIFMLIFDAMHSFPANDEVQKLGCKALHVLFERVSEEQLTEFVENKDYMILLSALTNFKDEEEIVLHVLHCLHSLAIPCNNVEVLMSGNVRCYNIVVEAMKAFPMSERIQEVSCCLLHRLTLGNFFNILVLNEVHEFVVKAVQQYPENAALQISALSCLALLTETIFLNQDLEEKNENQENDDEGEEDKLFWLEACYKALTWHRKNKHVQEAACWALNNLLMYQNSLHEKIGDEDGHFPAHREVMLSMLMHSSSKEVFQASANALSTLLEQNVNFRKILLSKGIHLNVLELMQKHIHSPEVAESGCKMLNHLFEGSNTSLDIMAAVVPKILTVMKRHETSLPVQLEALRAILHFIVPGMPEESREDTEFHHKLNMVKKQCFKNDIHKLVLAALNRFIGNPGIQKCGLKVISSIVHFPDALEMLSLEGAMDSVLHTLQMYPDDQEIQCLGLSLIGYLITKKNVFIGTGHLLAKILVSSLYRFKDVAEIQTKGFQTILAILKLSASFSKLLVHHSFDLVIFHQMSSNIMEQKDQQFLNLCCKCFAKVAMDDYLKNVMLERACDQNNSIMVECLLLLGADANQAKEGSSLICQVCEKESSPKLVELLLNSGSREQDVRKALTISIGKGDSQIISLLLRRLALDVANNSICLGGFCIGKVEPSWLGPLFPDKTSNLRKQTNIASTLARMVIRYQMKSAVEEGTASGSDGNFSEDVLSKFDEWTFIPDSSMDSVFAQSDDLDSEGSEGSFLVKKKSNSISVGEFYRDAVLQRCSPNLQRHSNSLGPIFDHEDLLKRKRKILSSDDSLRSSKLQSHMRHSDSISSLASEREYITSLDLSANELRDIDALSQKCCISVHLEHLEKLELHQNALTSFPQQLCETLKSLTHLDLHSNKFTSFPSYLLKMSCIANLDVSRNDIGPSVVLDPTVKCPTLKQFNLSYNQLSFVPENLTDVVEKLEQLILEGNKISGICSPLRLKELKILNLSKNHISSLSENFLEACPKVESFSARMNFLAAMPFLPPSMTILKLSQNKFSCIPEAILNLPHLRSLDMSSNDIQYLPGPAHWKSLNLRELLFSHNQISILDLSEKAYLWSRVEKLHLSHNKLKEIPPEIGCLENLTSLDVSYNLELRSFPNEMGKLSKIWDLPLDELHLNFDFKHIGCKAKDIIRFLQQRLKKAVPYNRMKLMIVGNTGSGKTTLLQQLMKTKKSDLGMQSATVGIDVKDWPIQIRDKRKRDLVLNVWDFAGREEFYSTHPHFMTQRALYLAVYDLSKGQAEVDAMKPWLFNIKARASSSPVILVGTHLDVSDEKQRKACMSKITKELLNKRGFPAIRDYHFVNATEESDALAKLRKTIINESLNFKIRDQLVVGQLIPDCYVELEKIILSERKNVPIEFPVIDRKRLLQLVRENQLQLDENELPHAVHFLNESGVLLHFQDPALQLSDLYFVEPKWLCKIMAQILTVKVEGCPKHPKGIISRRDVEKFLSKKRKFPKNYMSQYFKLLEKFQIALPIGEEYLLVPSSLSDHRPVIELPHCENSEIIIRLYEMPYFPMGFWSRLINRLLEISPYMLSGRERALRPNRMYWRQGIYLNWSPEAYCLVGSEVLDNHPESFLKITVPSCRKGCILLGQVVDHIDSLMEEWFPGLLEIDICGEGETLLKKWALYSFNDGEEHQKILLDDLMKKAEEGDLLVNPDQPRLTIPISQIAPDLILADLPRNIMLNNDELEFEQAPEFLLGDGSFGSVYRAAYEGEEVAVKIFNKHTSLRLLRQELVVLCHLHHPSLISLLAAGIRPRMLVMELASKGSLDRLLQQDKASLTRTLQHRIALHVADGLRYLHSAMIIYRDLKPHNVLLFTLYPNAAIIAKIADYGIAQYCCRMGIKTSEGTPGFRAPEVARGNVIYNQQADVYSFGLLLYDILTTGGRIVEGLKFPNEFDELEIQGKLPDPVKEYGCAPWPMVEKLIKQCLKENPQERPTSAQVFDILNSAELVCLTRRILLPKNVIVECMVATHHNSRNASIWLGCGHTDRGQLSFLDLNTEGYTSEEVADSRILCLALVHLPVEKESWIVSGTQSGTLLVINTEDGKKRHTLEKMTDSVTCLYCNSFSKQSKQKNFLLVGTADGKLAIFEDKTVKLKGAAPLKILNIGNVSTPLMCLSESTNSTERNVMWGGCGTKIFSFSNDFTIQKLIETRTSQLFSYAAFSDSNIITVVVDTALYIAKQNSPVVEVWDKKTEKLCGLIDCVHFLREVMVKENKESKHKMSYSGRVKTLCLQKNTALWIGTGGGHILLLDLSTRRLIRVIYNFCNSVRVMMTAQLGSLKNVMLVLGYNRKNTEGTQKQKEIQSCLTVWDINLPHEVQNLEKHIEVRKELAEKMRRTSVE
UniProt O60331, sequence (whole entry, looked up): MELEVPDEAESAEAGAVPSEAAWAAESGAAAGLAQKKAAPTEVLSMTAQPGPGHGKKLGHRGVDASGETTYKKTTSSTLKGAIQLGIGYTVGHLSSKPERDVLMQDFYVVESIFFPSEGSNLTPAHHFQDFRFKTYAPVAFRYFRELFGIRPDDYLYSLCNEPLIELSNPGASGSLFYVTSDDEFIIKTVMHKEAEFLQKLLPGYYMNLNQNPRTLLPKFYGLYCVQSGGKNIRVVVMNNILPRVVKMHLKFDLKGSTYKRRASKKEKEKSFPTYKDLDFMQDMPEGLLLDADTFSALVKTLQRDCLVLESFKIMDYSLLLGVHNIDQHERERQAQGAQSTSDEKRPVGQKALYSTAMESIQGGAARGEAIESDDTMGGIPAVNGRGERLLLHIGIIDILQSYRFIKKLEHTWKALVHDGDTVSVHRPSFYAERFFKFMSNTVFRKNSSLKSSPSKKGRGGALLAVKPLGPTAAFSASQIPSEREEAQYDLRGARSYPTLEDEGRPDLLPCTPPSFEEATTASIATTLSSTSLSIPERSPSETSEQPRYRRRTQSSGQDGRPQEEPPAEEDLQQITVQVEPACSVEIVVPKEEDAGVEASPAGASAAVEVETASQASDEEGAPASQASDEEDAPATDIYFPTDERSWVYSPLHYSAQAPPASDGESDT
UniProt P36897, sequence (whole entry, looked up): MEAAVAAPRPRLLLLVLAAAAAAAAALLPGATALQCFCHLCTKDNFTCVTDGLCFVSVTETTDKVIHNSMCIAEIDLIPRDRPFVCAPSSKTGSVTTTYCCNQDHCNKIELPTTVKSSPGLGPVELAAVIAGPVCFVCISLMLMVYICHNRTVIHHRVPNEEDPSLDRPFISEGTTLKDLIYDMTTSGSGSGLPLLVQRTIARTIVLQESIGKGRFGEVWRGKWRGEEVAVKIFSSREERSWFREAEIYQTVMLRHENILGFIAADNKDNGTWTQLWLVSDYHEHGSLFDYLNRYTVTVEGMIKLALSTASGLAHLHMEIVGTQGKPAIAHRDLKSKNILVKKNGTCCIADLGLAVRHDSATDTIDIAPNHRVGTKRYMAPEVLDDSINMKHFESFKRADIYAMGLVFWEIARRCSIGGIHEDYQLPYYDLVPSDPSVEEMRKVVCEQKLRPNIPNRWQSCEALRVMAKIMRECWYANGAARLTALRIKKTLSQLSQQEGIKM

Sample 1
Compound: O=C(Nc1ccc(Oc2ccc(F)cc2)cc1)N1CCc2ncccc2[C@H]1c1ccc(F)cc1
Tested at: 1 µM
ULK1 (Homo sapiens, UniProt O75385); cell-free assay, competition with immobilised ligand — remaining binding: 89%.
The remaining binding was 94% (PLK4 (Homo sapiens, UniProt O00444); cell-free assay, competition with immobilised ligand).
For PIK3CA (Homo sapiens, UniProt P42336, M1043I); cell-free assay, competition with immobilised ligand: remaining binding read 89%.
For MAP3K12 (Homo sapiens, UniProt Q12852); cell-free assay, competition with immobilised ligand: remaining binding read 100%.
The remaining binding was 68% (NTRK3 (Homo sapiens, UniProt Q16288); cell-free assay, competition with immobilised ligand).
It gave 96% for remaining binding (CAMK2G (Homo sapiens, UniProt Q13555); cell-free assay, competition with immobilised ligand).
The remaining binding was 100% (COQ8A (Homo sapiens, UniProt Q8NI60); cell-free assay, competition with immobilised ligand).
For eIF-2-alpha kinase GCN2, C-terminal kinase domain (EIF2AK4, Homo sapiens, UniProt Q9P2K8, S808G); cell-free assay, competition with immobilised ligand: remaining binding read 100%.
For TGFBR1 (Homo sapiens, UniProt P36897); cell-free assay, competition with immobilised ligand: remaining binding read 85%.
The remaining binding was 76% (LRRK2 (Homo sapiens, UniProt Q5S007); cell-free assay, competition with immobilised ligand).
The remaining binding was 98% (ULK2 (Homo sapiens, UniProt Q8IYT8); cell-free assay, competition with immobilised ligand).
For MARK1 (Homo sapiens, UniProt Q9P0L2); cell-free assay, competition with immobilised ligand: remaining binding read 81%.
TLK2 (Homo sapiens, UniProt Q86UE8); cell-free assay, competition with immobilised ligand — remaining binding: 100%.
For ACVRL1 (Homo sapiens, UniProt P37023); binding, competition with immobilised ligand: remaining binding read 81%.
The remaining binding was 100% (IKBKB (Homo sapiens, UniProt O14920); cell-free assay, competition with immobilised ligand).
ALK (Homo sapiens, UniProt Q9UM73, L1196M); cell-free assay, competition with immobilised ligand — remaining binding: 100%.
It gave 91% for remaining binding (GRK1 (Homo sapiens, UniProt Q15835); cell-free assay, competition with immobilised ligand).
For DCLK1 (Homo sapiens, UniProt O15075); cell-free assay, competition with immobilised ligand: remaining binding read 100%.
For PIP5K1C (Homo sapiens, UniProt O60331); cell-free assay, competition with immobilised ligand: remaining binding read 96%.
For CDC42BPG (Homo sapiens, UniProt Q6DT37); competition binding: remaining binding read 93%.

Sample 2
Target: Ribosomal protein S6 kinase alpha-2 (RPS6KA2, Homo sapiens, UniProt Q15349)
UniProt Q15349, sequence (whole entry, looked up): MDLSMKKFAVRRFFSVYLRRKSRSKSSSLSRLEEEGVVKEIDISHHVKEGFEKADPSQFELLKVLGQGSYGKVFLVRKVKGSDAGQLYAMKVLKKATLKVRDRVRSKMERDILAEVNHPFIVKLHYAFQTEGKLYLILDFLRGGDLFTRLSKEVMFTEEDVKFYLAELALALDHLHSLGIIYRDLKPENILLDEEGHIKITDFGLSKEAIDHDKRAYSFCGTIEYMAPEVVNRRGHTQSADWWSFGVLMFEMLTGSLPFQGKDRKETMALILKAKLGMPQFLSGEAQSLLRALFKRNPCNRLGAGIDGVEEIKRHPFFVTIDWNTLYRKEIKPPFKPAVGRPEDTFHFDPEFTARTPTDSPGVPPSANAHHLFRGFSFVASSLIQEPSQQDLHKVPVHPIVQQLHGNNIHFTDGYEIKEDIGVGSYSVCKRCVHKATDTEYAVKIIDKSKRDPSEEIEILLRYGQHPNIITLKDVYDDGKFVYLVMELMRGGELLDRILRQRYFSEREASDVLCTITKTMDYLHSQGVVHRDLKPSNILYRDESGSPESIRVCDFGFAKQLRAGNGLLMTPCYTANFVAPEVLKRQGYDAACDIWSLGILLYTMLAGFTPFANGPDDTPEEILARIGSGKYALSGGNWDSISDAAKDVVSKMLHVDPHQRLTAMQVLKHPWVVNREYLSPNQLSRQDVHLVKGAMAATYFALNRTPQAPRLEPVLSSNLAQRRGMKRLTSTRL
Observed: enzyme activity
Action: inhibitor
Tested at: 0.5 µM
Baseline: control
`O=c1cc(-c2cccc3c2Sc2ccccc2S3)oc(N2CCOCC2)c1` has a remaining activity of 81.4%.
For `CCN(CC)CCNC(=O)c1c(C)[nH]c(/C=C2\C(=O)Nc3ccc(Cl)cc32)c1C`, the remaining activity was 10%.
`COc1cc2c(cc1OC)-c1[nH]nc(Nc3cccc(F)c3)c1C2` has a remaining activity of 91.4%.
For `O=C(Nc1cccc(Nc2nccc(Nc3cccc(C(F)(F)F)c3)n2)c1)C1CC1`, the remaining activity was 101%.
For `CN(C)C[C@H]1CCn2c(c(C3=C(c4cn(C)c5ccccc45)C(=O)NC3=O)c3ccccc32)C1`, the remaining activity was 3.57%.
The remaining activity of `CN([C@@H](Cc1ccc(OS(=O)(=O)c2cccc3cnccc23)cc1)C(=O)N1CCN(c2ccccc2)CC1)S(=O)(=O)c1cccc2cnccc12` is reported as 102%.
With `O=C1Nc2ccc(Cl)cc2C1=Cc1cc(Cl)c(O)c(Cl)c1` the remaining activity was 71.9%.
`COc1cc2ncnc(Nc3ccc(O)c(Br)c3)c2cc1OC` gave a remaining activity of 63.6%.
The remaining activity of `CCN(CC)CCNC(=O)c1c(C)[nH]c(/C=C2\C(=O)Nc3ccc(F)cc32)c1C` is reported as 17.3%.
The remaining activity of `N#Cc1c(NC(=O)c2cccc3ccccc23)sc2c1CCCC2` is reported as 95.3%.
With `O=C(NC(NC(=S)Nc1ccc(F)c([N+](=O)[O-])c1)C(Cl)(Cl)Cl)C(c1ccccc1)c1ccccc1` (centres unmarked) the remaining activity was 101%.
The remaining activity of `c1ccc(-c2[nH]ncc2-c2ccnc3ccccc23)nc1` is reported as 96.3%.
With `Cc1cn(-c2cc(NC(=O)c3ccc(C)c(Nc4nccc(-c5cccnc5)n4)c3)cc(C(F)(F)F)c2)cn1` the remaining activity was 97.1%.

Sample 3
Cell line: HH
Tested at: 2 µM
Time: 48 h
Baseline: untreated
`COc1cc(Nc2ncc(F)c(Nc3ccc4c(n3)N(COP(=O)(O)O)C(=O)C(C)(C)O4)n2)cc(OC)c1OC` gave a viability of 92.9%.
`Cc1ccc(Nc2nccc(N(C)c3ccc4c(C)n(C)nc4c3)n2)cc1S(N)(=O)=O` gave a viability of 97.7%.
With `Cn1cc(-c2ccc3ncc(Cc4ccc5ncccc5c4)n3n2)cn1` the viability was 69.4%.
For `Cc1ccc(NC(=O)c2ccc(CN3CCN(C)CC3)cc2)cc1Nc1nc(-c2cccnc2)cs1`, the viability was 107%.
`Cn1sc(=O)n(Cc2ccccc2)c1=O` has a viability of 95.5%.
With `O=C(NCc1ccccc1)c1csc(Nc2ccncn2)n1` the viability was 60.9%.
`CNC(=O)c1cc(Oc2ccc(NC(=O)Nc3ccc(Cl)c(C(F)(F)F)c3)c(F)c2)ccn1` has a viability of 94.5%.
The viability of `Cn1cc(-c2ccc3nnc(C(F)(F)c4ccc5ncccc5c4)n3n2)cn1` is reported as 105%.
For `O=C1NC(=O)/C(=C/c2cccc(C(F)(F)F)c2)S1`, the viability was 104%.
For `Cc1c(F)cc(C(=O)NC2CC2)cc1-c1ccc(C(=O)NCC(C)(C)C)cn1`, the viability was 90%.
With `CC1(C)CNc2cc(NC(=O)c3cccnc3NCc3ccncc3)ccc21` the viability was 88.7%.
`Cc1[nH]c(/C=C2\C(=O)Nc3ccccc32)c(C)c1CCC(=O)O` gave a viability of 137%.
`O=C1NC(=O)[C@@H](c2cn3c4c(cccc24)CCC3)[C@@H]1c1c[nH]c2ccccc12` gave a viability of 14.7%.
`CCc1cncnc1N1CCN(Cc2nc3ccc(C(F)(F)F)cc3[nH]2)CC1` gave a viability of 80.5%.
`NC1(c2ccc(-c3nc4ccn5c(=O)[nH]nc5c4cc3-c3ccccc3)cc2)CCC1` has a viability of 97.5%.
The viability of `c1cc(-c2cnn3cc(-c4ccc(OCCN5CCCCC5)cc4)cnc23)ccn1` is reported as 57.5%.
`CC(C)(C#N)c1ccc(N2C(=O)OCc3cnc4ccc(-c5cnc6ccccc6c5)cc4c32)cc1` gave a viability of 83.9%.

Sample 4
Target: Calcium/calmodulin-dependent protein kinase type II subunit alpha (CAMK2A, Homo sapiens, UniProt Q9UQM7)
UniProt Q9UQM7, sequence (whole entry, looked up): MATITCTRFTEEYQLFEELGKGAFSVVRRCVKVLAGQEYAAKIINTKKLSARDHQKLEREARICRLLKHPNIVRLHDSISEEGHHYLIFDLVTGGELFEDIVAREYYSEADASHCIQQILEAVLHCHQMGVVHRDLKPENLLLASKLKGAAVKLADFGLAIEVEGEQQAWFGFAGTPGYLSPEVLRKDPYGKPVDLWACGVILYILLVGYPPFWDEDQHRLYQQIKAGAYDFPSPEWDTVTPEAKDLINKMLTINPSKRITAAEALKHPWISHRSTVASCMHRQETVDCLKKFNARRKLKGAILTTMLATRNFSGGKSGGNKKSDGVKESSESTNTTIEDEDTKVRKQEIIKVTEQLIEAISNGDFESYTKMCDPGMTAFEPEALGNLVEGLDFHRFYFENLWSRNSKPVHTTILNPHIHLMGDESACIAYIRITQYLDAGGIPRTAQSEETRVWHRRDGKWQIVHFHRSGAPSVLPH
Observed: enzyme activity
Action: inhibitor
Tested at: 10 µM
The inhibition of `COc1ccc2cc([C@H](C)C(=O)O)ccc2c1` is reported as -2%.
`N=C(N)NCCN1CCCCCCC1` has an inhibition of -16%.
`O=C(OC[C@H]1O[C@@H](OC(=O)c2cc(O)c(O)c(O)c2)[C@H](OC(=O)c2cc(O)c(O)c(O)c2)[C@@H](OC(=O)c2cc(O)c(O)c(O)c2)[C@@H]1OC(=O)c1cc(O)c(O)c(O)c1)c1cc(O)c(O)c(O)c1` has an inhibition of -72%.
For `CCO/N=C(\C(=O)N[C@@H]1C(=O)N2C(C(=O)O)=C(Sc3nc(-c4cc[n+](C)cc4)cs3)CS[C@H]12)c1nsc(NP(=O)(O)O)n1`, the inhibition was 2%.
`O=c1[nH]cnc2c1ncn2[C@H]1C[C@H](O)[C@@H](CO)O1` gave an inhibition of 5%.
The inhibition of `CCCCCC/C=C\CCCC(=O)O` is reported as -11%.
For `N[C@H](C=O)[C@@H](O)[C@H](O)[C@H](O)CO`, the inhibition was -24%.
For `C[C@@H]1O[C@@H](O[C@H]2[C@H](OC(=O)[C@]34CCC(C)(C)C[C@H]3C3=CC[C@@H]5[C@@]6(C)C[C@H](O)[C@H](O[C@@H]7O[C@H](CO)[C@@H](O)[C@H](O)[C@H]7O)[C@](C)(CO)[C@@H]6CC[C@@]5(C)[C@]3(C)C[C@H]4O)OC[C@H](O)[C@@H]2O)[C@H](O)[C@H](O)[C@H]1O[C@@H]1OC[C@@H](O)[C@H](O[C@@H]2OC[C@](O)(CO)[C@H]2O)[C@H]1O`, the inhibition was -2%.
The inhibition of `COC1=CC(=O)c2ccccc2C1=O` is reported as -45%.
